Measurements of several laboratories.
Substitutions count along the parent as printed. Numbers after ± are the reported error.
T1: Vegfa residues 27-190 (Rattus norvegicus); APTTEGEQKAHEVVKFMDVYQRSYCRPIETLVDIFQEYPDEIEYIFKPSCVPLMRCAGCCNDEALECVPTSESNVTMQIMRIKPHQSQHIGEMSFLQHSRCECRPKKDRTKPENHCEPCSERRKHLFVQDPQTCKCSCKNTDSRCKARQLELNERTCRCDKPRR
P1: NCAM1 residues 745-753 (Mus musculus); IAVNLCGKA; partner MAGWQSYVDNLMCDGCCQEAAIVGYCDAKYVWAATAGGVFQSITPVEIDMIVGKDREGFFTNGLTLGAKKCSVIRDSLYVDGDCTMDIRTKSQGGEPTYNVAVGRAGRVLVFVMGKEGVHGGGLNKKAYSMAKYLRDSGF
Sequence of UniProt Q8K3Y3 (whole entry, looked up): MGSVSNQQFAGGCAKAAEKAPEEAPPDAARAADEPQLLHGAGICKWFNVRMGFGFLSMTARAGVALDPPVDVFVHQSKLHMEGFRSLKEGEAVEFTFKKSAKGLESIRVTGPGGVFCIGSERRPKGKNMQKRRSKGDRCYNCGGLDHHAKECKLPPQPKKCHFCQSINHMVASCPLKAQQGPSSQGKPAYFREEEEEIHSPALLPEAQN
Sequence of UniProt P50534 (whole entry, unmodified, looked up): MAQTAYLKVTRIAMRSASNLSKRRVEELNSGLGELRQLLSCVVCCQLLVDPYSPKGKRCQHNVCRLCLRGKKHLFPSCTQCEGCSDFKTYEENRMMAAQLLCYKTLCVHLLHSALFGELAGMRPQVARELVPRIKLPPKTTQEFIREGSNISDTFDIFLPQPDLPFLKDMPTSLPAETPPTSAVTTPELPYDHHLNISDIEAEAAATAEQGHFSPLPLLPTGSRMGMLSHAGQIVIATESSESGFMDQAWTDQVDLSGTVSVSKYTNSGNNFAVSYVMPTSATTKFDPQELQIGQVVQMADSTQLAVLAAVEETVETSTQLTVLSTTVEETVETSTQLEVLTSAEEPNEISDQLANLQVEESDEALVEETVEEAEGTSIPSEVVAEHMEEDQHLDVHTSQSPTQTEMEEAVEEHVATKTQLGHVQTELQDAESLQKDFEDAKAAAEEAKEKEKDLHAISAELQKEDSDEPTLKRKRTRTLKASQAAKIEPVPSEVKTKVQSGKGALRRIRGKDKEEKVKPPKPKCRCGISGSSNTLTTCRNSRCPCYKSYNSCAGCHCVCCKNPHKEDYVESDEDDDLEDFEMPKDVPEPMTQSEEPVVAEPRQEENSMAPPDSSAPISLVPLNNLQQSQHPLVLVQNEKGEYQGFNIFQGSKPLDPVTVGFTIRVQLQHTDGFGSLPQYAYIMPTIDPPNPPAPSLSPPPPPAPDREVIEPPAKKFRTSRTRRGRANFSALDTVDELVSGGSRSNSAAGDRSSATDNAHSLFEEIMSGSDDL
Sequence of UniProt Q6PI48 (whole entry, looked up): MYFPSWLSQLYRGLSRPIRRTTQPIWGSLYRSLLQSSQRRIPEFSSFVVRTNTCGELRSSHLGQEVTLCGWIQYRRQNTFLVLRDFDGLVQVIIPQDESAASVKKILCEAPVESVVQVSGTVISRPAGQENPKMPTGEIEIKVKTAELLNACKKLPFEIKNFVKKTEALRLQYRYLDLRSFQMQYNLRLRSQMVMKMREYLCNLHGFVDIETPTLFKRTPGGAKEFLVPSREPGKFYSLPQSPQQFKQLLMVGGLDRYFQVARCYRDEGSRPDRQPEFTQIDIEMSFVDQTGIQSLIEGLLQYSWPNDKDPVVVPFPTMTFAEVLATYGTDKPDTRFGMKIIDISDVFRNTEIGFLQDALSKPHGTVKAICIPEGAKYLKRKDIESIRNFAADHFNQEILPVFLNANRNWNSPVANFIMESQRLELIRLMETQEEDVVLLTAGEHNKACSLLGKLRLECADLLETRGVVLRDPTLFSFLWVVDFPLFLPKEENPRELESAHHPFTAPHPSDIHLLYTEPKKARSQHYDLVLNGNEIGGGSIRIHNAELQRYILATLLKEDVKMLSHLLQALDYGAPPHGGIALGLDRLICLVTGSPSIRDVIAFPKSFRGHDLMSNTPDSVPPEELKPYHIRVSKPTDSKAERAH
Sequence of UniProt Q9UIF7 (whole entry, looked up): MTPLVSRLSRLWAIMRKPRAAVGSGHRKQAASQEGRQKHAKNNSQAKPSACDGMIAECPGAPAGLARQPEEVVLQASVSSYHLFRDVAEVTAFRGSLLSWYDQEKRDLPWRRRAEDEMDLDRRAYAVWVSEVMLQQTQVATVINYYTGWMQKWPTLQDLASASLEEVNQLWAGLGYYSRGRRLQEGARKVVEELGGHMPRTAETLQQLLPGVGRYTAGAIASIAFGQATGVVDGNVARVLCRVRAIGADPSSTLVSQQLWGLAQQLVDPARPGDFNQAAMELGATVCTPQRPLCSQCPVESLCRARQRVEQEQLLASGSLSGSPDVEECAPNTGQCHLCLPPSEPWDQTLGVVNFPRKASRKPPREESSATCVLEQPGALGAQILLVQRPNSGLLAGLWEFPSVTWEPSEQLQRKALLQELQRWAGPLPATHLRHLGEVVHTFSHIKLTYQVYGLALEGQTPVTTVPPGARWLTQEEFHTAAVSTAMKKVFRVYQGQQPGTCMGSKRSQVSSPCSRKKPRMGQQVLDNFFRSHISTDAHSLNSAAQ
Sequence of UniProt Q9WV35 (whole entry, looked up): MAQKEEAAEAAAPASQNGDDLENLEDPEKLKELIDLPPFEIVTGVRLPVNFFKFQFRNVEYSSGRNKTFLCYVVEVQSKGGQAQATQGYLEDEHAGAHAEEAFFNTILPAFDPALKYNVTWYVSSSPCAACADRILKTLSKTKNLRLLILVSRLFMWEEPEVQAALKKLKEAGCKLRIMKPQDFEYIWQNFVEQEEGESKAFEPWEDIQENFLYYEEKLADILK
Sequence of UniProt Q9QX72 (whole entry, looked up): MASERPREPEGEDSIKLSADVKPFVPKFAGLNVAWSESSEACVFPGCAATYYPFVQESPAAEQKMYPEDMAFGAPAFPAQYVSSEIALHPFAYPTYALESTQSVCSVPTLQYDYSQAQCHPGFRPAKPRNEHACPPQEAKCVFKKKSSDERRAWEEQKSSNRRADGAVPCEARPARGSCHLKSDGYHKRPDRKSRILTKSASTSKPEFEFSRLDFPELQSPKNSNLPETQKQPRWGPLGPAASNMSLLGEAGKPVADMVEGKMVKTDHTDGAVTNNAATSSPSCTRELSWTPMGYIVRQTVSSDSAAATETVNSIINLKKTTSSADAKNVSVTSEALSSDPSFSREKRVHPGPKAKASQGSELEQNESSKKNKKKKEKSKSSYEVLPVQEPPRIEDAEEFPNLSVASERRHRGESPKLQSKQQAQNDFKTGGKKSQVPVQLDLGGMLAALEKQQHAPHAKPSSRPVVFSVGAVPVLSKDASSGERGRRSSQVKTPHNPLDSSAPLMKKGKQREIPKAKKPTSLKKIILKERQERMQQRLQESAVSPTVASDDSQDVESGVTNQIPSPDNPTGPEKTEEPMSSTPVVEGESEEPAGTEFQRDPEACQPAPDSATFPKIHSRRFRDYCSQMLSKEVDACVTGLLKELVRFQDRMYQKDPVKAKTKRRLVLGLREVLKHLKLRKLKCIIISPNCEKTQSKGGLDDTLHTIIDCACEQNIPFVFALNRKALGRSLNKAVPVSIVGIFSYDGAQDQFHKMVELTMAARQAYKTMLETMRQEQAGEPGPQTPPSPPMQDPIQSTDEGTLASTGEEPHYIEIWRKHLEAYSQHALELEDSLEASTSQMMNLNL
Sequence of UniProt P35208 (whole entry, looked up): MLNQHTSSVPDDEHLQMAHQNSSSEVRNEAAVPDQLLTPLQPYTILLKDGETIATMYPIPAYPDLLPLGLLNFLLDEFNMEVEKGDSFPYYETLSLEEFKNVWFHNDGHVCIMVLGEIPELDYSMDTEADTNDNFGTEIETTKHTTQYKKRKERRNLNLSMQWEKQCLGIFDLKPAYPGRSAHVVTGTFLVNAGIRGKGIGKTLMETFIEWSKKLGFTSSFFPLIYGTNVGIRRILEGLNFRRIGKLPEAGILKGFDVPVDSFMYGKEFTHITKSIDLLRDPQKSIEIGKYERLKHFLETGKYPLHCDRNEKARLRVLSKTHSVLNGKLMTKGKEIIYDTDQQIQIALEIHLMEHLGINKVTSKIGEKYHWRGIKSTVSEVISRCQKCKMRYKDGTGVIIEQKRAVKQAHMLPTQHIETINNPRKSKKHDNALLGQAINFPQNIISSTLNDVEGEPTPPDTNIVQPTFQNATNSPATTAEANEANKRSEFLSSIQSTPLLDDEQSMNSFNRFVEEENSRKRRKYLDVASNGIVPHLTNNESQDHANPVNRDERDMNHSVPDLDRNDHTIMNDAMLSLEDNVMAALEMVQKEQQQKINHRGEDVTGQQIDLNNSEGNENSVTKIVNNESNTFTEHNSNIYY

Substance	tested on	test	system	conditions	how to read	measurement	result
GCAGAUUGAGGGUCUAUGAUACCGCAAGGUACAGGAGAUAUCUGCA (structured RNA)	Lin28a 119-180 (Mus musculus, UniProt Q8K3Y3)	EMSA	folded RNA	–	–	Kd	4 ± 1 nM
AAGGUAUUAGAAAAACCAUUUCAUAACUUUGUCAAAGUUAAAUUAUAGGCUAAAUCCUAUAUAUCUUACCA (tRNA (Homo sapiens))	DARS2 41-645 (Homo sapiens, UniProt Q6PI48)	ITC	folded RNA	–	–	Kd	260 ± 180 nM
CACGGACCCCAUGGCAGGGGUGGCGUCUUCAUGAGGGAGGGGCCCAAAGCCCUUGUGGGCGGACCUCCCCUGAGCCUGUCUGAGGGGCCAGCCCUUAGUGCAU (structured RNA (human); stem-loop, kink-turn)	Secisbp2 517-777 (Rattus norvegicus, UniProt Q9QX72)	EMSA	–	apparent, together with: tRNA competitor	–	Kd	14 nM
DNA 1 GTCGTGGACTAGGCAAAGAACTTATAGAGCCACTTGAGCACACAGAGG / DNA 2 CTAGTCCACGACTTTTTTTT (dsDNA; 8-oxoG opposite A, three-strand assembly)	MUTYH full length assumed (Homo sapiens, UniProt Q9UIF7)	SPR	double-stranded DNA	–	–	Kd	6.2 nM
TGCGGCCATCTCTTTCGTTTTGATGTTTCT (dsDNA)	msl-2 1-773 (Drosophila melanogaster, UniProt P50534)	EMSA	double-stranded DNA, one strand shown	–	–	Kd	116 ± 22 nM
P1 L5A C6S	PFN2	ELISA	–	3.1 µM, read off a plot	higher = more binding	signal	0.052 OD
GCAGAUUGAGGAUCUAUGAUACCACCCGGUACAGGAGAUAUCUGCA (structured RNA)	Lin28a 119-180 (Mus musculus, UniProt Q8K3Y3)	EMSA	folded RNA	–	–	Kd	25 ± 7 nM
GCTGAGCTTCTGGTGAAGCTCAGCTCGCGGCAGCTGGTGCTGCCGCGA (dsDNA; dumbbell, central nick, 5' phosphate)	PARP2 NTR 1-78 (Homo sapiens)	fluorescence polarization	folded DNA	–	–	Kd	994 nM
CATTAGCGCTGTTCCAAAATTTTCGCCTCACTGTGCGAAGCTATTGGAATGGAGTGTATT (dsDNA)	SPT10 283-640 (Saccharomyces cerevisiae, UniProt P35208)	EMSA	double-stranded DNA, one strand shown	–	–	Kd	67 ± 19 nM
GCTGAGCTTCTGGTGAAGCTCAGCTCGCGGCAGCTGGTGCTGCCGCG (dsDNA; 5' phosphate)	PARP2 full length 1-570 (Homo sapiens)	fluorescence polarization	folded DNA	–	–	Kd	88 nM
P1 N4Q L5A	PFN2	ELISA	–	1.6 µM, read off a plot	higher = more binding	signal	0.066 OD
GCAGAUUGAGGGUCUAUGAUACCACCCGGUACAGGAGAUAUCUGCA (structured RNA)	Lin28a 1-209 (Mus musculus, UniProt Q8K3Y3)	EMSA	folded RNA	Hill fit	–	Kd	0.13 ± 0.02 nM
GAGCGAGA (dsDNA)	msl-2 520-570 C560G (Drosophila melanogaster, UniProt P50534)	NMR titration	double-stranded DNA, one strand shown	apparent	–	Kd	31000 nM
CGGAAUCAGUGAAUGCUUAUACAUCCG (ssRNA; single strand, 2'-F pyrimidines, 2'-OMe purines)	T1, Vegfa residues 27-190 (Rattus norvegicus)	ELONA	modified nucleic acid	–	–	Kd	0.008 ± 0.01 nM
GCAGAUUGACGAUCUAUGAUACCACCCGGUACAGGAGAUAUCUGCA (structured RNA)	Lin28a 119-180 (Mus musculus, UniProt Q8K3Y3)	EMSA	folded RNA	–	–	Kd	18 ± 5 nM
TCTCAAGAAAAAAAAAAAAAGAC (ssDNA)	Apobec2 full length assumed (Mus musculus, UniProt Q9WV35)	MST	single-stranded DNA	together with: Mg2+ 5 mM	–	Kd	20200 ± 6580 nM

Excerpt of the above:
Substance	tested on	test	system	conditions	how to read	measurement	result
TGCGGCCATCTCTTTCGTTTTGATGTTTCT (dsDNA)	msl-2 1-773 (Drosophila melanogaster, UniProt P50534)	EMSA	double-stranded DNA, one strand shown	–	–	Kd	116 ± 22 nM
GCAGAUUGAGGAUCUAUGAUACCACCCGGUACAGGAGAUAUCUGCA (structured RNA)	Lin28a 119-180 (Mus musculus, UniProt Q8K3Y3)	EMSA	folded RNA	–	–	Kd	25 ± 7 nM
